Measurements from different studies.
Lines come from different studies, so protocols differ. ± marks the error that the study gave.

Compound = CC(C)c1nc(N(C)S(C)(=O)=O)nc(-c2ccc(F)cc2)c1/C=C/[C@@H](O)C[C@@H](O)CC(=O)O; assay = measured: headache; test system = healthy men; setting = oral, dose not given, 8 days, treatment-emergent, crossover trial; measurement = subjects with adverse event; value = 0%
Compound = CCc1cc2c(N3CCN(c4nncs4)CC3)ncnc2s1; tested on = HBL-1; setting = 0.1 µM, 120 h; measurement = viability; value = 136%
Compound = Cn1cc(-c2ccc(-c3cncc(Cl)c3N3CCC4(CCNC4=O)CC3)cc2)cn1; tested on = COLO 205; assay = gene expression, microarray, measured: HIST1H4A mRNA; setting = concentration not given, 6 h; how to read = relative to: untreated cells; measurement = log2 fold change; value = -1.8
Compound = Cc1cccc(CNC(=O)c2cn(CCNC(=O)c3ccccc3S)c3cc4c(cc3c2=O)OC(F)(F)O4)n1; test system = Sprague-Dawley rat, male, plasma; setting = intramuscular, 3 mg/kg of parent compound; measurement = AUC(0-t); value = 155 ± 44.2 ng·h/mL
Compound = CO[C@H]1C[C@@H]2CC[C@@H](C)[C@@](O)(O2)C(=O)C(=O)N2CCCC[C@H]2C(=O)O[C@H]([C@H](C)C[C@@H]2CC[C@@H](OC(=O)NCCOCCOCCOCCOCCOCCOCCOCCOCCC(=O)N3CCc4cc(Cn5nc(-c6ccc7oc(N)nc7c6)c6c(N)ncnc65)ccc4C3)[C@H](OC)C2)C[C@@H](O)[C@H](C)/C=C(\C)[C@@H](O)[C@@H](OC)C(=O)[C@H](C)C[C@H](C)/C=C/C=C/C=C/1C; test system = human patients, plasma; setting = intravenous, 10 mg, cycle 1 day 1, 2 h infusion; measurement = half-life; value = 816 min
Compound = CCCCC1=NC2(CCCC2)C(=O)N1Cc1ccc(-c2ccccc2S(=O)(=O)Nc2noc(C)c2C)c(COCC)c1; test system = healthy adult volunteers, plasma; setting = oral, 200 mg, 14 days repeated dosing, fasted, crushed tablet; measurement = Tmax; value = 2.5 h
Compound = CCN1CCN(Cc2ccc(NC(=O)c3ccc(C)c(NC(=O)c4cncc(-c5cccs5)c4)c3)cc2C(F)(F)F)CC1; test system = C57BL/6 mice, epithelial lining fluid; setting = intraperitoneal, 20 mg/kg; measurement = Tmax; value = 0.25 h
Compound = CCc1nc(C(N)=O)c(Nc2ccc(N3CCC(N4CCN(C)CC4)CC3)c(OC)c2)nc1NC1CCOCC1; test system = female FVB mice, wild-type, plasma; setting = oral, 10 mg/kg, single dose; measurement = Tmax; value = 1 h
Compound = CCc1c(C)nc(-c2ccc(Cl)s2)nc1Nc1ccc(CC(=O)O)cc1; test system = mice, chronic ethanol plus binge; setting = intraperitoneal, 0.3 mg/kg daily, ethanol diet 4 weeks, dosed last two; how to read = relative to: vehicle; measurement = serum urea nitrogen; value = no effect
Compound = C=CC(=O)Nc1cc(Nc2nccc(-c3cn(C)c4ccccc34)n2)c(OC)cc1N(C)CCN(C)C; assay = storage stability; test system = human plasma; setting = 30 d, on ice, HQC level; measurement = recovery; value = 55.1%
Compound = Cc1cc(Nc2ccc(S(F)(F)(F)(F)F)cc2)n2nc(C(C)(F)F)nc2n1; tested on = Plasmodium vivax; assay = 12-lead ECG; test system = malaria patients; setting = oral, 600 mg, increase above 60 ms; measurement = patients with QTcB increase; value = 0%
Compound = COc1ncc(-c2nc3c(n2C(C)C)[C@H](c2ccc(Cl)cc2)N(c2cc(Cl)cn(C)c2=O)C3=O)c(OC)n1; test system = human patients, plasma; setting = oral, 25 mg, 0-24 h, low-dose arm, cycle 2 day 1; measurement = AUC(0-t) geometric mean; value = 2840 ng·h/mL
Compound = CCc1cc(C(=O)NC)c2nccc(N3CCc4c(cc(Cn5ccnc5)cc4-c4cn(C)nc4C(F)(F)F)C3=O)c2c1; assay = measured: CREA; test system = Sprague Dawley rat; setting = oral, 100 mg/kg once daily, 7 days; how to read = relative to: vehicle; measurement = change in clinical chemistry or haematology parameter; value = -4.3%
Compound = CC(=O)Nc1cccc(-n2c(=O)n(C3CC3)c(=O)c3c(Nc4ccc(I)cc4F)n(C)c(=O)c(C)c32)c1; tested on = NCI-H2087 (BRAF L597V); setting = 100.00 nM, 72 h, unit not given; how to read = relative to: DMSO; measurement = viability; value = 0.358
Compound = CC(C(=O)NCC(=O)NCC(CNC(=O)CNC(=O)C(C)N1CCN(CC(=O)[O-])CCN(CC(=O)[O-])CCN(CC(=O)[O-])CC1)(CNC(=O)CNC(=O)C(C)N1CCN(CC(=O)[O-])CCN(CC(=O)[O-])CCN(CC(=O)[O-])CC1)CNC(=O)CNC(=O)C(C)N1CCN(CC(=O)[O-])CCN(CC(=O)[O-])CCN(CC(=O)[O-])CC1)N1CCN(CC(=O)[O-])CCN(CC(=O)[O-])CCN(CC(=O)[O-])CC1.[Gd+3].[Gd+3].[Gd+3].[Gd+3] (stereo not shown); assay = LC-MS; setting = 1 mmol/L, 35 days, pH 1.2, 37°C; measurement = amide hydrolysis; value = < 15%
Compound = Cc1nc2ccc(OCc3ccc(C(F)(F)F)cc3)cc2[nH]1; test system = Balb/c mouse, male, kidney; setting = intravenous, 1 mg/kg, 3 h; how to read = relative to: tissue over plasma; measurement = tissue/plasma ratio; value = 8.4 ± 1.2
Compound = COc1cc2c(NC3CCN(C)CC3)nc(N3CCCN(C)CC3)nc2cc1OCCOCCN(C)C; tested on = HBL-1; setting = 0.5 µM, 120 h; measurement = viability; value = 125%
Compound = CC(C)(C(=O)N1CCOc2c(C#N)cncc2C1)C(F)F; assay = measured: skin irritation; test system = healthy humans, both sexes; setting = oral, 10 mg single dose; measurement = subjects with TEAE; value = 0%
Compound = O=C(Nc1nc2cccc(-c3ccc(CN4CCS(=O)(=O)CC4)cc3)n2n1)C1CC1; assay = measured: rheumatoid arthritis; test system = rheumatoid arthritis patients; setting = oral, 75 mg once daily, 4 weeks, any relatedness; measurement = treatment-emergent adverse events; value = 0%
Compound = C=CC(=O)N1CCC(c2ccc(C(N)=O)c(-c3ccc(Oc4ccccc4)cc3)n2)CC1; assay = CTCAE 4.03; test system = patients with relapsed/refractory MCL; setting = oral, dose not given; measurement = incidence of serious COPD; value = 0.9%
Compound = CC[C@H](C)[C@H](NC(=O)[C@H](Cc1ccccc1)NC(=O)[C@H](CCC(=O)O)NC(=O)[C@H](CCCCNC(=O)COCCOCCNC(=O)COCCOCCNC(=O)CC[C@H](NC(=O)CCCCCCCCCCCCCCCCC(=O)O)C(=O)O)NC(=O)[C@H](C)NC(=O)[C@H](C)NC(=O)[C@H](CCC(N)=O)NC(=O)CNC(=O)[C@H](CCC(=O)O)NC(=O)[C@H](CC(C)C)NC(=O)[C@H](Cc1ccc(O)cc1)NC(=O)[C@H](CO)NC(=O)[C@H](CO)NC(=O)[C@@H](NC(=O)[C@H](CC(=O)O)NC(=O)[C@H](CO)NC(=O)[C@@H](NC(=O)[C@H](Cc1ccccc1)NC(=O)[C@@H](NC(=O)CNC(=O)[C@H](CCC(=O)O)NC(=O)C(C)(C)NC(=O)[C@@H](N)Cc1cnc[nH]1)[C@@H](C)O)[C@@H](C)O)C(C)C)C(=O)N[C@@H](C)C(=O)N[C@@H](Cc1c[nH]c2ccccc12)C(=O)N[C@@H](CC(C)C)C(=O)N[C@H](C(=O)N[C@@H](CCCNC(=N)N)C(=O)NCC(=O)N[C@@H](CCCNC(=N)N)C(=O)NCC(=O)O)C(C)C; assay = 12-lead Holter ECG; test system = healthy humans; setting = subcutaneous, 1.5 mg once weekly, 27 h, steady state; how to read = relative to: placebo; measurement = QTcB change from baseline; value = 9.2 ms
Compound = Cc1cc(N)c2c(OCC(C)(C)C(=O)NC(C)C)cccc2n1; tested on = Salmonella typhimurium; assay = reverse mutation, plate incorporation; test system = TA98; setting = 50 µg/plate, with rat liver S9; measurement = mean revertant colonies; value = 27 colonies/plate
Compound = FC(F)(F)c1ccc(CNc2ccc(Cc3c[nH]c4ncc(Cl)cc34)cn2)cn1; assay = measured: Anemia; test system = patients with advanced solid tumours, non-TGCT cohort; setting = oral, 1000 mg/day, grade 3 or higher; measurement = treatment-related adverse events; value = 0%
Compound = CC[C@H](CO)N(CCN(N=O)[C@H](CC)CO)N=O; tested on = Salmonella typhimurium; assay = mutagenicity, Ames plate incorporation; test system = TA100; setting = 5000 µg/plate, without S9, methanol; measurement = revertant colonies per plate; value = 198 ± 22
Compound = CC[C@H](C)[C@H](NC(=O)[C@H](Cc1ccccc1)NC(=O)[C@H](CCC(=O)O)NC(=O)[C@H](CCCNC(=N)N)NC(=O)[C@H](C)NC(=O)[C@H](C)NC(=O)[C@H](CCC(N)=O)NC(=O)[C@H](CCC(=O)O)NC(=O)[C@H](CCC(=O)O)NC(=O)[C@H](CC(C)C)NC(=O)[C@H](Cc1ccc(O)cc1)NC(=O)[C@H](CO)NC(=O)[C@H](CO)NC(=O)[C@@H](NC(=O)[C@H](CC(=O)O)NC(=O)[C@H](CO)NC(=O)[C@@H](NC(=O)[C@H](Cc1ccccc1)NC(=O)[C@@H](NC(=O)CNC(=O)[C@H](CCC(=O)O)NC(=O)[C@H](C)NC(=O)CCc1c[nH]cn1)[C@@H](C)O)[C@@H](C)O)C(C)C)C(=O)N[C@@H](C)C(=O)N[C@@H](Cc1c[nH]c2ccccc12)C(=O)N[C@@H](CC(C)C)C(=O)N[C@H](C(=O)N[C@@H](CCCNC(=N)N)C(=O)NCC(=O)N[C@@H](CCCNC(=N)N)C(=O)N[C@@H](CCCCNC(=O)COCCOCCNC(=O)COCCOCCNC(=O)CC[C@H](NC(=O)CCCCCCCCCCCCCCCCC(=O)O)C(=O)O)C(=O)O)C(C)C; assay = UPLC-MS; test system = rat, plasma; setting = subcutaneous, 20 nmol/kg; measurement = Vz/F; value = 0.166 L/kg

Repeated from above:
Compound = CCc1cc2c(N3CCN(c4nncs4)CC3)ncnc2s1; tested on = HBL-1; setting = 0.1 µM, 120 h; measurement = viability; value = 136%
Compound = FC(F)(F)c1ccc(CNc2ccc(Cc3c[nH]c4ncc(Cl)cc34)cn2)cn1; assay = measured: Anemia; test system = patients with advanced solid tumours, non-TGCT cohort; setting = oral, 1000 mg/day, grade 3 or higher; measurement = treatment-related adverse events; value = 0%
